# Measured values gathered from unrelated publications.
# Numbered parts are unrelated; each lists some results of a single study. “And” joins repeats or separate records; there may be more than shown.
# Sequence of UniProt P11229 (whole entry, looked up): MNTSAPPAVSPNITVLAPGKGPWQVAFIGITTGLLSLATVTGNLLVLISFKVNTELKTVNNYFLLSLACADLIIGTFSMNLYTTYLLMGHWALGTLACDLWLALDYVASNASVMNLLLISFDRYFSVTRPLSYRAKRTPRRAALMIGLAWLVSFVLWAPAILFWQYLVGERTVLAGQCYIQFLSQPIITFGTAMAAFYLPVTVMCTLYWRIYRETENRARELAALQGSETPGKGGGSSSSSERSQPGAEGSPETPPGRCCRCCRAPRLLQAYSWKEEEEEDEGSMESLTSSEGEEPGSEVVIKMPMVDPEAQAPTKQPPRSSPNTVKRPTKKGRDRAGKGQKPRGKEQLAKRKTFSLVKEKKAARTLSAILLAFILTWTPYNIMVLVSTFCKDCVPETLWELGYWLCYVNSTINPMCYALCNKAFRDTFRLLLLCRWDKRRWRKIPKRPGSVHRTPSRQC

# Sample 1 — read-out: enzyme activity; action: inhibitor; concentration: 10 µM
# Target: Calcium/calmodulin-dependent protein kinase type II subunit alpha (CAMK2A, Homo sapiens, UniProt Q9UQM7)
# Sequence of UniProt Q9UQM7 (whole entry, looked up): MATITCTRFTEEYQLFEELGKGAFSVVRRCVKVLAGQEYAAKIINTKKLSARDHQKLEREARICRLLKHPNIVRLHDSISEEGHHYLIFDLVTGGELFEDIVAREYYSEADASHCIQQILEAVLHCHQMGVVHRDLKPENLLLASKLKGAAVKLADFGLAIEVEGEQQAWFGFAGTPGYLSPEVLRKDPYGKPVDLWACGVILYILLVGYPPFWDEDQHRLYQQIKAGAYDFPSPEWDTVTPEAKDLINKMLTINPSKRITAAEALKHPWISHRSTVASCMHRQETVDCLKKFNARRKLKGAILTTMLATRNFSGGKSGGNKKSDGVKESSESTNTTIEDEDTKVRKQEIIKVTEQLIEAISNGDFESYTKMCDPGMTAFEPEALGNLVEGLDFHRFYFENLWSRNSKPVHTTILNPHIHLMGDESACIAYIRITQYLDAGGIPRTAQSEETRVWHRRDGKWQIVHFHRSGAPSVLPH
SMILES,inhibition [%]
CCOC(=O)[C@H](CCc1ccccc1)N[C@@H](C)C(=O)N1Cc2cc(OC)c(OC)cc2C[C@H]1C(=O)O,4
CC(C)(C#N)c1cc(Cn2cncn2)cc(C(C)(C)C#N)c1,4
O=C(O)[C@@H](S)[C@@H](S)C(=O)O,-6
Oc1cccc(O)c1O,-67
COC(=O)C(O)CC(C)C (stereo not drawn),8
COc1cc(-c2oc3cc(O)cc(O)c3c(=O)c2O[C@@H]2O[C@H](CO)[C@@H](O)[C@H](O)[C@H]2O[C@@H]2O[C@@H](C)[C@H](O)[C@@H](O)[C@H]2O)ccc1O,-5
CO[C@@H]([C@@H]1OC(C(=O)O)=C[C@H](N=C(N)N)[C@H]1NC(C)=O)[C@H](O)CO,-9
COc1cc(-c2coc3cc(O[C@@H]4O[C@H](CO)[C@@H](O)[C@H](O)[C@H]4O)c(OC)c(O)c3c2=O)cc(O)c1OC,-55

# Sample 2 — cell line: mouse MPNST tumor cells; method: high-content nuclear imaging; refers to: cell number; concentration: 10 µM; time: 12 h; notes: mean of 2 replicates; reference: plate mean; reading: higher = more cells
SMILES,nuclei count
Nc1ccc(S(N)(=O)=O)cc1,0.232 z-score
C=CCc1ccccc1OCC(O)CNC(C)C (stereo not drawn),2.67 z-score
COc1cc(NS(=O)(=O)c2ccc(N)cc2)nc(OC)n1,0.546 z-score
O=C(O)c1ccccc1Nc1cccc(C(F)(F)F)c1,-0.352 z-score
NC(=O)OCC(COC(N)=O)c1ccccc1,0.686 z-score and -0.506 z-score and 0.622 z-score
CCN(CC)Cc1ccc2cc(COC(=O)Nc3ccc(C(=O)NO)cc3)ccc2c1,-3.49 z-score
CNC(=O)c1ccc2c(c1)CCO[C@H]2CCN1CCN(c2ccc(C(N)=O)cc2)CC1,-1.18 z-score
CN1CCN(c2nc(-c3ccc(C(=O)NC4(C(=O)NCC#N)CCCCC4)cc3)cs2)CC1,2.35 z-score

# Sample 3 — organism: Cryptosporidium parvum; method: time-kill; cell line: HCT-8; strain: nanoluciferase-expressing; reading: higher = more parasites
# SMILES: CN(C(=O)c1ccn2ncc(-c3ccc(C(N)=O)cc3)c2c1)c1ccc(C#N)cn1
conditions,parasite luminescence
"0.7407 µM, 72 h",15400 RLU and 15700 RLU
"0.00102 µM, 8 h",107000 RLU and 85100 RLU
"0.02743 µM, 72 h",133000 RLU and 171000 RLU
"0.02743 µM, 48 h",202000 RLU and 204000 RLU
"0.2469 µM, 72 h",17800 RLU and 20300 RLU
"0.7407 µM, 48 h",27300 RLU and 24300 RLU
"0.00305 µM, 48 h",166000 RLU and 179000 RLU

# Mixed results
SMILES,target,test,conditions,quantity,result
CN1CCN(C(=O)C(C)(C)c2ccc(C(=O)Nc3cn4cc(-c5ccncc5)ccc4n3)cc2)CC1,"Muscarinic acetylcholine receptor M1 (CHRM1, Homo sapiens, UniProt P11229)","binding, radioligand binding",10 µM,inhibition,-10.8%

# For quick reference, copied from above (sample 1):
SMILES,inhibition [%]
O=C(O)[C@@H](S)[C@@H](S)C(=O)O,-6
COC(=O)C(O)CC(C)C (stereo not drawn),8
